Measured values of several laboratories.
Every numbered part comes from another study and shows a few of its results, in no order. Positions count from the first letter of the parent shown.

Series 1
Target: UBE2D3 UBC core domain (UniProt P61077)
Technique: yeast two-hybrid
Medium: yeast
Setting: mostly zero background
Relative to: not given
Reading: higher = stronger interaction
B1: ARIH2 RING domain (UniProt O95376); chain HVPTSHPPHHCAVCMQFVRKENLLSLACQHQFCRSCWEQHCSVLVKDGVGVGVSCMAQDCPLRTPEDFVF
B2: ZNRF4 RING domain (UniProt Q8WWF5); chain VRTFTWHNDLCAICLDEYEEGDQLKILPCSHTYHCKCIDPWFSQAPRRSCPVCKQSVAATEDSF
B3: TRIM41 RING domain (UniProt Q8WV44); chain PVQTLQEEAVCAICLDYFTDPVSIGCGHNFCRVCVTQLWGGEDEEDRDELDREEEEEDGEEE
B4: RUFY1 RING domain (UniProt Q96T51); chain QALKGHAWLKDDEATHCRQCEKEFSISRRKHHCRNCGHIFCNTCSSNELALPSYPKPVRVCDSCHTLLLQRCSSTAS
B5: RNF182 RING domain (UniProt Q8N6D2); chain AESQASDELECKICYNRYNLKQRKPKVLECCHRVCAKCLYKIIDFGDSPQGVIVCPFCRFETCLPDDEV
B6: RNF103 RING domain (UniProt O00237); chain WPADMLHCTECVVCLENFENGCLLMGLPCGHVFHQNCIVMWLAGGRHCCPVCRWPSYKKKQPY
Residues (chain): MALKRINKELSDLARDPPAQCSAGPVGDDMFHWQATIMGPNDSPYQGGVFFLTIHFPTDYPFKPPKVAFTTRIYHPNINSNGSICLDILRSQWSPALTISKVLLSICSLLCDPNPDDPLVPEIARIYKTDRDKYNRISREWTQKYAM
`B1 (ARIH2 RING domain)` — result for “lacZ reporter activity”: 0.
Under “lacZ reporter activity”, `B2 (ZNRF4 RING domain)` is recorded as 12700.
`LVKDFNPYITCYICKGYLIKPTTVTECLHTFCKTCIVQHFEDSNDCPRCGNQVHETNPLE (PCGF5 RING domain (UniProt Q86SE9))` — result for “lacZ reporter activity”: 0.
Under “lacZ reporter activity”, `B3 (TRIM41 RING domain)` is recorded as 0.
`B4 (RUFY1 RING domain)`: “lacZ reporter activity” 0.
Under “lacZ reporter activity”, `B5 (RNF182 RING domain)` is recorded as 0.
`B6 (RNF103 RING domain)` — result for “lacZ reporter activity”: 16300.
Under “lacZ reporter activity”, `EIKEYKARLTCPCCNTRKKDAVLTKCFHVFCFECVRGRYEARQRKCPKCNAAFGAHDFHR (RNF40 RING domain (UniProt O75150))` is recorded as 0.

Series 2
Target: Sal-like protein 4, full length isoform B (SALL4, Homo sapiens, UniProt Q9UJQ4-2, residues 1-616)
Technique: universal PBM
Form: double-stranded DNA, one strand shown
Medium: in vitro
Tested at: not given
Setting: 8-mer, flanks averaged, mean of replicates
Reading: higher = stronger binding
Construct (chain): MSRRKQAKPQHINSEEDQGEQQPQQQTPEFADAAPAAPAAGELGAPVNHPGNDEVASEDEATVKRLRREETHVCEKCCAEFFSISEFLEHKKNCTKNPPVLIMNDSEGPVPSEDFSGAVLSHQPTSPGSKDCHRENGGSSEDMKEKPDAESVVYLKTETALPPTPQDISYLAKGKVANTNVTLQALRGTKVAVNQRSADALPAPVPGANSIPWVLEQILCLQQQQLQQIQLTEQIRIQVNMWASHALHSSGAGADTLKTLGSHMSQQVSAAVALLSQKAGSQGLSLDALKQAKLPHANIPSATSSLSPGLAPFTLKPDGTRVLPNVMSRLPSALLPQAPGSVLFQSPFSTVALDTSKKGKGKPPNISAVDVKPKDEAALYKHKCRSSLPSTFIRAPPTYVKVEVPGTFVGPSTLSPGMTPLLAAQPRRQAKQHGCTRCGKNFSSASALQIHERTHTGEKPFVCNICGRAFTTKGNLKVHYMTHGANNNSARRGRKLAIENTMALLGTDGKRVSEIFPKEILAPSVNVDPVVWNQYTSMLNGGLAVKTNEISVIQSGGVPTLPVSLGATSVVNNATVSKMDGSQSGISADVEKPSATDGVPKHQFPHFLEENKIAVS
`AGCCGATG` gave an E-score of -0.258.
With `AGCCCGCG` the E-score was -0.408.
`ACTGTAGA` has an E-score of 0.105.
`ACGACAAG` has an E-score of -0.123.
The E-score of `AAAACTCC` is reported as 0.0323.
`CTGGCCCA` has an E-score of -0.257.
`AATAACCC` gave an E-score of 0.155.
`GATTGGGC` gave an E-score of -0.105.

Series 3
Target: HLA class I histocompatibility antigen, A alpha chain, allele A*25:01 (Homo sapiens, UniProt P04439)
Observed: peptide-MHC binding
Form: peptide
Tested at: concentration not given
Under binding, `GLYLYRFHV` is recorded as “inactive”.
Under binding, `DEQEFFYSQ` is recorded as “inactive”.
`LMQCWQLLA` — result for binding: “inactive”.
`TTILGLLPM` — result for binding: “inactive”.

Series 4
Target: CCNE1, cyclin fold, Cln2 fusion (human)
Technique: yeast growth competition, sequencing
Medium: yeast
Setting: strong parent motif
Relative to: not given
Reading: higher = stronger binding
Parent: viral docking peptide; YKVKRRLVFGADD; partner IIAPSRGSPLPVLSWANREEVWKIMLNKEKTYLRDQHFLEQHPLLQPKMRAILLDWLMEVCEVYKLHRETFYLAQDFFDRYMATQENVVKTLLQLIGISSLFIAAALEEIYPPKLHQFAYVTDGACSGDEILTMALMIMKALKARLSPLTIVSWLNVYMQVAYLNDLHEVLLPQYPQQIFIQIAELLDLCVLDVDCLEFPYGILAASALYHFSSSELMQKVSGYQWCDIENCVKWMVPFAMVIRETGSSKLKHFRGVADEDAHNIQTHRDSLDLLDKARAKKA
`YKHKRRLVFGADD [V3H]`: “normalised enrichment score” 2.05.
`YKTKRRLVFGADD [V3T]`: “normalised enrichment score” 3.76.
`YKVKRRLVFGDDD [A11D]` — result for “normalised enrichment score”: 6.58.
`YKVWRRLVFGADD [K4W]` — result for “normalised enrichment score”: 1.04.
`YKVKRGLVFGADD [R6G]` — result for “normalised enrichment score”: 0.082.
`YKVKRRLRFGADD [V8R]`: “normalised enrichment score” 3.9.
`AKVKRRLVFGADD [Y1A]` — result for “normalised enrichment score”: 5.91.
`YKVKRRLKFGADD [V8K]` — result for “normalised enrichment score”: 5.43.
Under “normalised enrichment score”, `YKVKRRLVFQADD [G10Q]` is recorded as 5.36.
`YKVKRRLVFGCDD [A11C]`: “normalised enrichment score” 6.21.
For `YKVKFRLVFGADD [R5F]`, “normalised enrichment score” read 0.293.
`YKVLRRLVFGADD [K4L]`: “normalised enrichment score” 0.876.
`YKVKRRLVFTADD [G10T]`: “normalised enrichment score” 5.29.
`YKVKRRCVFGADD [L7C]` — result for “normalised enrichment score”: 0.0491.

Repeated from above (series 4):
`YKVKRGLVFGADD [R6G]` — result for “normalised enrichment score”: 0.082.
`YKVKRRLVFGDDD [A11D]` — result for “normalised enrichment score”: 6.58.
`YKVKRRLRFGADD [V8R]`: “normalised enrichment score” 3.9.
`YKVKRRCVFGADD [L7C]` — result for “normalised enrichment score”: 0.0491.
